Measured values pooled from the literature.
Lines come from different studies, so protocols differ. ± marks the error that the study gave. ≈ marks a conversion by molar mass, not a printed value.
UniProt Q15418, sequence (whole entry, looked up): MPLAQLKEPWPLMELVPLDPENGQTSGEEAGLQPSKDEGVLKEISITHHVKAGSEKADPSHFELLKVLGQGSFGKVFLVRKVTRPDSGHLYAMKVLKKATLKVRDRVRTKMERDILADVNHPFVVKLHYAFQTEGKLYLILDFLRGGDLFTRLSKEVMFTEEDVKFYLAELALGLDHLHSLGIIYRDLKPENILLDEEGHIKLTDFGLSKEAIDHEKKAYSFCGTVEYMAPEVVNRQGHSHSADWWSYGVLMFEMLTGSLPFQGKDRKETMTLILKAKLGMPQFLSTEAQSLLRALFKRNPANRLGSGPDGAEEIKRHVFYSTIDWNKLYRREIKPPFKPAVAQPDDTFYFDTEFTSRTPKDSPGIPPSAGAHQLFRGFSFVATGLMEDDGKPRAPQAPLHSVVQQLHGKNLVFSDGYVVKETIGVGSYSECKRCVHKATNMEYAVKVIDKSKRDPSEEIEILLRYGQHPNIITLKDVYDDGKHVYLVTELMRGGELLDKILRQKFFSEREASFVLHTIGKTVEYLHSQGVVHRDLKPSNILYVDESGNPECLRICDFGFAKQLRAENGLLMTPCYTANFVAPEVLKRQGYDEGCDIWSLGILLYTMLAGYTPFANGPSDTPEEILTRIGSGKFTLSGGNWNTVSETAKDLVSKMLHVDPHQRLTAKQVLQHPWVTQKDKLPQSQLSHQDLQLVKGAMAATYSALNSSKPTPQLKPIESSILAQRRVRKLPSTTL
UniProt Q06124, sequence (whole entry, looked up): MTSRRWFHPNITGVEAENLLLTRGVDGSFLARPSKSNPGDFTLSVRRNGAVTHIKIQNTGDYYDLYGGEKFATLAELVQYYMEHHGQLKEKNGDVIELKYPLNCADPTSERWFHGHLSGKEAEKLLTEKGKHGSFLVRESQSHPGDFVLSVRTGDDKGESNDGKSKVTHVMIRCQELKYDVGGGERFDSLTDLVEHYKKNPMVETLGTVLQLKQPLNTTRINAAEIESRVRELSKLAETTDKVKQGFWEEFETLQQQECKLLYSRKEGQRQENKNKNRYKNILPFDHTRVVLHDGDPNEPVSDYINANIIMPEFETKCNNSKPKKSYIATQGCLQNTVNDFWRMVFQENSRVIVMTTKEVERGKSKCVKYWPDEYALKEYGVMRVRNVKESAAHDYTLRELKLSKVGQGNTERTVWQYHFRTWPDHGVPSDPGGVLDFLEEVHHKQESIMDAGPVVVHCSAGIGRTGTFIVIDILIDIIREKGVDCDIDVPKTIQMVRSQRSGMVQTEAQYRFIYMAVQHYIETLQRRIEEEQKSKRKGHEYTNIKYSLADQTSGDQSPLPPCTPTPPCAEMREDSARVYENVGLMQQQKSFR

Structure (SMILES) | tested on | test | system | conditions | endpoint | result
O=C(NCc1ccccc1)c1cn(Cc2ccc(C(F)(F)F)cc2)c2ccc(Oc3ccccc3)cc2c1=O | MCF7 |  |  | 72 h | CC50 | 21.5 ± 0.39 µM
C[C@H]1O[C@H](O[C@H]2[C@H](O)[C@@H](O)[C@@H](O[C@H]3[C@H](O)[C@@H](O)C(O)O[C@@H]3CO)O[C@@H]2CO)[C@H](O)[C@@H](O)[C@@H]1N[C@H]1C=C(CO)[C@@H](O)[C@H](O)[C@H]1O (some centres unmarked) | human lysosomal acid alpha-glucosidase | inhibitor |  | together with: pNPG substrate | IC50 | 10.7 ± 0.25 µg/mL (≈ 16.5 µM)
CCOc1c([C@H](C)n2nc(C)c3c(N)ncnc32)cc(Cl)c(F)c1[C@@H]1CNC(=O)C1 |  |  | patients with indolent lymphoma, plasma | oral, 30 mg, day 15, monotherapy | half-life geometric mean | 10.5 h
O=C(NCc1ccc(O)cc1)c1cn(Cc2ccc(F)cc2)c2ccc(Oc3ccccc3)cc2c1=O | MCF10 |  |  | 72 h | CC50 | 24.7 ± 2.9 µM
C=CS(=O)(=O)Oc1ccccc1 | PTPN11 (Homo sapiens, UniProt Q06124) | intact protein LC-MS |  | 20 µM, 60 min, protein 10 µM | covalent adduct formation | 21%
O=C(NCc1ccc(Cl)cc1)c1cn(Cc2ccc(Cl)cc2)c2ccc(Oc3ccccc3)cc2c1=O | MCF7 |  |  | 72 h | CC50 | 22 ± 1.27 µM
COc1cc(/C=N/NC(=S)NN=Cc2ccc([N+](=O)[O-])o2)ccc1Oc1ccnc2cc(Cl)ccc12 | AKR1B1 (Homo sapiens, UniProt P15121) | Lineweaver-Burk kinetics |  | 3.30 µg (IC40) | Km | 3.95 mM
O=C(Nc1cc(-c2ccc(Cl)cc2)[nH]n1)C1CCCCC1 | RPS6KA1 (Homo sapiens, UniProt Q15418) | enzyme activity, Dundee kinase panel |  | 10 µM | remaining activity | 76%
